Results pooled from the literature.
Protocols differ between the studies behind these lines.
ADRB1: Beta-1 adrenergic receptor (ADRB1, Homo sapiens, UniProt P08588)
Sequence of UniProt P08588 (whole entry, looked up): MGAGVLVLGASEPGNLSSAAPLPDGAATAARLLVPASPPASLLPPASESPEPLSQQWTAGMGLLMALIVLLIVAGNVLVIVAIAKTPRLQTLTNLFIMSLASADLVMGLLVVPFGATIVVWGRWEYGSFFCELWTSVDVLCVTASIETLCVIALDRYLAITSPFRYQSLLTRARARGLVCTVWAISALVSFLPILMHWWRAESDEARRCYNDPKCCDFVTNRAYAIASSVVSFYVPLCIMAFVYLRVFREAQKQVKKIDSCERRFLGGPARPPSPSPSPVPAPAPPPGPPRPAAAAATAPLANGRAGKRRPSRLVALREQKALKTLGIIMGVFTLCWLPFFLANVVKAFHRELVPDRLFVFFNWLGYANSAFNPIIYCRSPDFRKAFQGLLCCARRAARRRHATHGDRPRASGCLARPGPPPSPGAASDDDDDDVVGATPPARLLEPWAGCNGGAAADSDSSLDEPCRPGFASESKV
Sequence of UniProt P33981 (whole entry, looked up): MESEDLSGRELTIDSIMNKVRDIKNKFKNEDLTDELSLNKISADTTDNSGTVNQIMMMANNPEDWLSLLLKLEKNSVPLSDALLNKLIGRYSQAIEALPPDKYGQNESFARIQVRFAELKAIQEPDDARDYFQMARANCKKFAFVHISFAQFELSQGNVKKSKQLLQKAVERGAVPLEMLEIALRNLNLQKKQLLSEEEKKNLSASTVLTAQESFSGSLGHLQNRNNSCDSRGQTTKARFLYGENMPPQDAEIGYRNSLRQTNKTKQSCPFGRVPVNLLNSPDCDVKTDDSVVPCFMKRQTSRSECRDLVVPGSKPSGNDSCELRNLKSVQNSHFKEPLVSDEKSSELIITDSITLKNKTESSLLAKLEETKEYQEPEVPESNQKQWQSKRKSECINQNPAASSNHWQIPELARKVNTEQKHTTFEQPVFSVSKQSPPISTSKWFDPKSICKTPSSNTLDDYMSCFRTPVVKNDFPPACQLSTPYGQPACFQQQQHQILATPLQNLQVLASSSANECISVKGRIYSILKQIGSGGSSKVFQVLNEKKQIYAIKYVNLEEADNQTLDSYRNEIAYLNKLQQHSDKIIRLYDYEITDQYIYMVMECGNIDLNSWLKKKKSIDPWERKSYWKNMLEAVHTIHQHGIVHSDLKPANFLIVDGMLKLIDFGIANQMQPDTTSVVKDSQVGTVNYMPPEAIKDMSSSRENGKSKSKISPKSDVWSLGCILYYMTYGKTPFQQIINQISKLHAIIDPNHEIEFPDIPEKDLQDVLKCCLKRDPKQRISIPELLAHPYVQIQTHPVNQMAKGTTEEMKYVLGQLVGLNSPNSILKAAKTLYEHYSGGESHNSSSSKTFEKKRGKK

SMILES | target or system | assay | test system | setting | scale | endpoint | value
FC(F)(F)c1cccc(N2CCNCC2)c1 | ADRB1 | agonist |  |  |  | EC50 | ≥ 100 µM
COC[C@H]1OC(=O)c2coc3c2[C@@]1(C)C1=C(C3=O)[C@@H]2CCC(=O)[C@@]2(C)C[C@H]1OC(C)=O | TTK (Homo sapiens, UniProt P33981) | enzyme activity, inhibitor |  | 0.5 µM | reference: control | remaining activity | 98.2%
C=CC[C@]1(O)CC[C@H]2[C@@H]3CCC4=CC(=O)CCC4=C3C=C[C@@]21C | A-375 |  |  | 100 µM, 36 h |  | viability | 26%
C[C@@H](O)[C@H](NC(=O)[C@H]1NC(=O)[C@H]([C@@H](C)O)NC(=O)[C@H](CCCN)NC(=O)[C@@H](Cc2c[nH]c3ccccc23)NC(=O)[C@H](Cc2ccc(O)cc2)NC(=O)[C@@H](NC(=O)[C@H](N)Cc2ccccc2)CSSC1(C)C)C(N)=O | ADRB1 | agonist |  |  |  | EC50 | ≥ 100 µM
[N-]=[N+]=CC(=O)CC[C@H](N)C(=O)O |  |  | C57BL/6 CES1-/- mouse, blood | intravenous, 1 mg/kg equivalent |  | lymphocyte count | 0.58
C[C@]1(O)CC[C@H]2[C@@H]3CCC4=CC(=O)CC[C@]4(C)[C@@]3(F)[C@@H](O)C[C@@]21C | A-375 |  |  | 100 µM, 36 h |  | viability | 82%
O=C1CCC(N2Cc3c(ccc4c3OCC43CCN(Cc4ccccc4)CC3)C2=O)C(=O)N1 (centres unmarked) |  |  | male CD-1 mouse, plasma | intravenous, 1 mg/kg |  | Vd | 4.24 L/kg
CC(=O)Oc1ccc(/C=C/c2cc(OC(C)=O)cc(OC(C)=O)c2)cc1 |  |  | mouse, microsomes or S9 | 2 µM, 0.5 h |  | remaining compound | 5.03%

Excerpt of the above:
SMILES | target or system | assay | test system | setting | scale | endpoint | value
C[C@@H](O)[C@H](NC(=O)[C@H]1NC(=O)[C@H]([C@@H](C)O)NC(=O)[C@H](CCCN)NC(=O)[C@@H](Cc2c[nH]c3ccccc23)NC(=O)[C@H](Cc2ccc(O)cc2)NC(=O)[C@@H](NC(=O)[C@H](N)Cc2ccccc2)CSSC1(C)C)C(N)=O | ADRB1 | agonist |  |  |  | EC50 | ≥ 100 µM
